Measured values collected from several papers.
Compare with care: the assays were run in different laboratories. “And” joins repeats or separate records; there may be more than shown. ± gives the spread as reported.
T1: ATRX ADD domain 167-289 K251R/F284Y (Homo sapiens); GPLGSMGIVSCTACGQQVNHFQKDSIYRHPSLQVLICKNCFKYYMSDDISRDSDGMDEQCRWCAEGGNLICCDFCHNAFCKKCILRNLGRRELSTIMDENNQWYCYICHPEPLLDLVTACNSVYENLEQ
B1: UBASH3A 276-340 (Homo sapiens, UniProt P57075); chain VHYQTLRALFQYKPQNVDELTLSPGDYIFVDPTQQDEASEGWVIGISQRTGCRGFLPENYTDRAS
B2: NFE2L2 155-220 (Homo sapiens, UniProt Q16236); fluorescein label; chain GVFIATNQAQSPETSVAQVAPVDLDGMQQDIEQVWEELLSIPELQCLNIENDKLVETTMVPSPEAKL
B3: IGSF10 2234-2623 (Homo sapiens, UniProt Q6WRI0); sequence looked up; chain PPLINGLYTNRTVIKATAVRHSKKHFDCRAEGTPSPEVMWIMPDNIFLTAPYYGSRITVHKNGTLEIRNVRLSDSADFICVARNEGGESVLVVQLEVLEMLRRPTFRNPFNEKIVAQLGKSTALNCSVDGNPPPEIIWILPNGTRFSNGPQSYQYLIASNGSFIISKTTREDAGKYRCAARNKVGYIEKLVILEIGQKPVILTYAPGTVKGISGESLSLHCVSDGIPKPNIKWTMPSGYVVDRPQINGKYILHDNGTLVIKEATAYDRGNYICKAQNSVGHTLITVPVMIVAYPPRITNRPPRSIVTRTGAAFQLHCVALGVPKPEITWEMPDHSLLSTASKERTHGSEQLHLQGTLVIQNPQTSDSGIYKCTAKNPLGSDYAATYIQVI
B4: C1s CCP2-SP domains; glycosylated; chain 1 VDCGIPESIENGKVEDPESTLFGSVIRYTCEEPYYYMENGGGGEYHCAGNGSWVNEVLGPELPKCVPVCGVPREPFEEKQR; chain 2 IIGGSDADIKNFPWQVFFDNPWAGGALINEYWVLTAAHVVEGNREPTMYVGSTSVQTSRLAKSKMLTPEHVFIHPGWKLLEVPEGRTNFDNDIALVRLKDPVKMGPTVSPICLPGTSSDYNLMDGDLGLISGWGRTEKRDRAVRLKAARLPVAPLRKCKEVKVEKPTADAEAYVFTPNMICAGGEKGMDSCKGDAGGAFAVQDPNDKTKFYAAGLVSWGPQCGTYGLYTRVKNYVDWIMKTMQENSTPRED
B5: Cacna1c 1647-1777 (Mus musculus, UniProt Q01815); sequence looked up; chain NALSLQAGLRTLHDIGPEIRRAISGDLTAEEELDKAMKEAVSAASEDDIFRRAGGLFGNHVTYYQSDSRGNFPQTFATQRPLHINKTGNNQADTESPSHEKLVDSTFTPSSYSSTGSNANINNANNTALGR
B6: LLGL2 13-978 (Homo sapiens, UniProt Q6P1M3); phosphorylated serines, Hilyte488 label; chain RERLKRDLFQFNKTVEHGFPHQPSALGYSPSLRILAIGTRSGAIKLYGAPGVEFMGLHQENNAVTQIHLLPGQCQLVTLLDDNSLHLWSLKVKGGASELQEDESFTLRGPPGAAPSATQITVVLPHSSCELLYLGTESGNVFVVQLPAFRALEDRTISSDAVLQRLPEEARHRRVFEMVEALQEHPRDPNQILIGYSRGLVVIWDLQGSRVLYHFLSSQQLENIWWQRDGRLLVSCHSDGSYCQWPVSSEAQQPEPLRSLVPYGPFPCKAITRILWLTTRQGLPFTIFQGGMPRASYGDRHCISVIHDGQQTAFDFTSRVIGFTVLTEADPAATFDDPYALVVLAEEELVVIDLQTAGWPPVQLPYLASLHCSAITCSHHVSNIPLKLWERIIAAGSRQNAHFSTMEWPIDGGTSLTPAPPQRDLLLTGHEDGTVRFWDASGVCLRLLYKLSTVRVFLTDTDPNENFSAQGEDEWPPLRKVGSFDPYSDDPRLGIQKIFLCKYSGYLAVAGTAGQVLVLELNDEAAEQAVEQVEADLLQDQEGYRWKGHERLAARSGPVRFEPGFQPFVLVQCQPPAVVTSLALHSEWRLVAFGTSHGFGLFDHQQRRQVFVKCTLHPSDQLALEGPLSRVKSLKKSLRQSFRRMRRSRVSSRKRHPAGPPGEAQEGSAKAERPGLQNMELAPVQRKIEARSAEDSFTGFVRTLYFADTYLKDSSRHCPSLWAGTNGGTIYAFSLRVPPAERRMDEPVRAEQAKEIQLMHRAPVVGILVLDGHSVPLPEPLEVAHDLSKSPDMQGSHQLLVVSEEQFKVFTLPKVSAKLKLKLTALEGSRVRRVSVAHFGSRRAEDYGEHHLAVLTNLGDIQVVSLPLLKPQVRYSCIRREDVSGIASCVFTKYGQGFYLISPSEFERFSLSTKWLVEPRCLVDSAETKNHRPGNGAGPKKAPSRARNSGTQSDGEEKQPGLVMER
B7: PLXNC1 1198-1305 T1264V/R1265V (Homo sapiens, UniProt O60486); chain TVALNVVFEKIPENESADVCRNISVNVLDCDTIGQAKEKIFQAFLSKNGSPYGLQLNEIGLELQMGVVQKELLDIDSSSVILEDGITKLNTIGHYEISNGSTIKVFKK
B8: dnaG 537-597 (Geobacillus stearothermophilus, UniProt Q9X4D0); chain MAADDVSEQELEDYIRHVLNRPKWLMLKVKEQEKTEAERRKDFLTAARIAKEMIEMKKMLSSS
B9: CFH domains 1108-1231 L1189F (Homo sapiens, UniProt P08603); sequence looked up; chain KCGPPPPIDNGDITSFPLSVYAPASSVEYQCQNLYQLEGNKRITCRNGQWSEPPKCLHPCVISREIMENYNIALRWTAKQKFYSRTGESVEFVCKRGYRLSSRSHTLRTTCWDGKLEYPTCAKR

Molecule | target or system | assay | system | setting | scale | measurement | result
B1 (UBASH3A 276-340) | PIK3R1 80-724 (Homo sapiens, UniProt P27986) | ITC | – | – | – | Kd | 23.8 ± 3.2 µM
B2 (NFE2L2 155-220) | EP300 TAZ2 1723-1812 x (Homo sapiens, UniProt Q09472) | fluorescence titration | – | – | – | Kd | 31.2 ± 16 µM
B3 (IGSF10 2234-2623) | RET 29-635 (Homo sapiens, UniProt P07949) | ITC | – | – | – | Kd | 0.25 µM
B4 (C1s CCP2-SP domains) | SERPING1 111-500 (Homo sapiens, UniProt P05155) | SPR | – | with: Ca2+ | – | Kd | 7.2 µM
colistin | Klebsiella pneumoniae | broth microdilution | clinical isolate RKI-No_908/15 | – | – | MIC | 32 µg/mL
B5 (Cacna1c 1647-1777) | Jph2 1-440 S165D (Mus musculus, UniProt Q9ET78) | ITC | – | – | – | Kd | 5.87 µM
petF ferredoxin (Synechocystis sp. PCC 6803, UniProt P27320) | narB C148A (Synechococcus sp. PCC 7942) | UV-visible difference titration | – | – | – | Kd | 25.4 ± 14.6 µM
GSGAGKESYV | human SCRIB PDZ3-4 tandem (MBP fusion) | automated holdup | peptide, crude extract | concentration not given, corrected by standard peak, unit not given | baseline: biotin control resin, higher = stronger binding | binding intensity | 0.755
B6 (LLGL2 13-978) | PRKCI/PARD6B 1-596, activation loop phosphorylated | fluorescence polarisation | – | with: AMP-PNP | – | Kd | 0.0396 µM
PRPRPRPRPRPRPRPRPRPRPRPRPRPRPRPRPRPRPRPR ((PR)20 20 repeats; TAMRA label N-terminal) | FUS 1-371 (Homo sapiens, UniProt P35637) | fluorescence polarisation | peptide | – | – | Kd | 0.051 ± 0.0084 µM
B7 (PLXNC1 1198-1305 T1264V/R1265V) | RND1 5-200 (Homo sapiens, UniProt Q92730) | SPR | – | – | – | Kd | 19.8 ± 2.86 µM
KLLMIIHDRREFAKFEKEKMNAKWDTGENPIYKSAINNFKNPNYGRKAGL (ITGB1 752-801 Q778G/P786A (Homo sapiens, UniProt P05556-5); sequence looked up) | Tln1 309-405 (Mus musculus, UniProt P26039) | NMR titration | – | – | – | Kd | 388 µM
GSGAGHETIV | human MAGI1-3/6 PDZ construct (MBP fusion) | surface plasmon resonance | peptide | concentration not given | higher = stronger binding | normalised SPR binding response | 16.8 normalised RU
galanin | rebH (Lentzea aerocolonigenes, UniProt Q8KHZ8, A442V/K145M/M71V/N467T/N470S/S2P) | substrate | – | – | – | total conversion | 21.2% and 21.6%
HGEDFSKVSQNPILTSLLQITGNG (MED1 peptide; N-terminal 5-FAM) | PPARG 202-477 (Homo sapiens, UniProt P37231-2) | FP | peptide | – | – | Kd | 1.43 µM
JAZ10 C-terminal domain (Arabidopsis thaliana) | MYC3 5-242, Alexa Fluor 488 label (Arabidopsis thaliana, UniProt Q9FIP9) | MST | – | 200 nM, labelled protein | – | Kd | 90.55 ± 0.64 µM
NUMB PTB domain | VSIR 232-258 peptide, N-terminal 5-FAM (Homo sapiens) | fluorescence polarisation | – | – | – | Kd | 5.5 µM
B8 (dnaG 537-597) | dnaB (Geobacillus stearothermophilus, UniProt Q9X4C9) | pull-down | – | – | – | Kd | < 0.001 µM
CALLLSAPRR (GOT2 (Gallus gallus); fluorescein label) | HSPA9 47-584 (Homo sapiens, UniProt P38646) | FP | peptide | – | – | Kd | 19.5 µM
ARTKQTARKSTGGKAY (H3C1 1-15; K4me1) | T1, ATRX ADD domain 167-289 K251R/F284Y (Homo sapiens) | ITC | peptide | – | – | Kd | 21.9 µM
FUS (Homo sapiens, UniProt P35637) | TNPO1 (Homo sapiens, UniProt Q92973-2) | fluorescence polarisation | – | – | – | Kd | 0.0432 ± 0.0105 µM
B9 (CFH domains 1108-1231 L1189F) | C3 C3dg 955-1303 (Homo sapiens, UniProt P01024) | SPR | – | – | – | Kd | 2.1 ± 0.6 µM
MBL-A mature, hydroxylysine, hydroxyproline in collagen (Rattus norvegicus, UniProt P19999) | C1r/C1s full-length tetramer (Homo sapiens) | SPR | – | with: CaCl2 140 mM | – | Kd | 0.036 µM
DDRHRIEEKRKRTYETFKSIMKKSPFNGP (Rela 293-321 (Mus musculus, UniProt Q04207); sequence looked up) | NFKBIA 67-206 (Homo sapiens, UniProt P25963) | ITC | peptide | NaCl 150 mM | – | Kd | 0.746 ± 0.016 µM
Adgrb1 fragment (Mus musculus) | RTN4RL2 extracellular domain (Mus musculus, UniProt Q7M6Z0) | SPR | – | – | – | Kd | 0.03 µM

A few entries again:
Molecule | target or system | assay | system | setting | scale | measurement | result
NUMB PTB domain | VSIR 232-258 peptide, N-terminal 5-FAM (Homo sapiens) | fluorescence polarisation | – | – | – | Kd | 5.5 µM
B6 (LLGL2 13-978) | PRKCI/PARD6B 1-596, activation loop phosphorylated | fluorescence polarisation | – | with: AMP-PNP | – | Kd | 0.0396 µM
B2 (NFE2L2 155-220) | EP300 TAZ2 1723-1812 x (Homo sapiens, UniProt Q09472) | fluorescence titration | – | – | – | Kd | 31.2 ± 16 µM
